Published values of several laboratories.
Parts stem from different laboratories: compare values within a part only. Substitutions count along the parent as printed.

Study 1
Target: Histone acetyltransferase KAT6A, winged helix 1, GST fusion (KAT6A, Homo sapiens, UniProt Q92794, residues 1-85)
Method: protein binding microarray
Form: double-stranded DNA, one strand shown
Matrix: in vitro
Concentration: not given
Notes: 8-mer, flanks averaged, mean of 2 arrays, mostly near background
Relative to: not given
Reading: higher = stronger binding
Quantity: E-score
Residues (chain): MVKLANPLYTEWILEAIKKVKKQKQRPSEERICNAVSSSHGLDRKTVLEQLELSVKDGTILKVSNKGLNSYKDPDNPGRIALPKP
GAATCGCA: -0.0135
CACTGGTA: -0.126
ATACCTCC: -0.0777
GAGCGAAA: -0.0552
CTAACGCA: 0.121
TAGCATCA: -0.0351
ATTAAGCC: 0.0653
GCTTCGGA: 0.0603
CAGAGATG: -0.0663
GAACTTCC: -0.112
AGGTCGTG: -0.27
ACGCGTAC: 0.364
GGTTGATA: -0.0836
CGTGCTTA: -0.000825
CCTTCTCG: -0.148
ATAAAAAC: -0.0863
AAGTCTCT: -0.314
ACTTCTCA: -0.265
GGGCAACC: -0.00329
CGGAAAAG: 0.189
GTACGGAA: 0.26
GGCCCCCC: 0.146
AGCTCCTA: -0.107
TCCCCGAA: 0.0413
GGACAGTA: -0.013

Study 2
Target: PABPC1L2, full length, GST fusion (mouse, UniProt A0ABA7IW68)
Method: RNAcompete
Form: RNA
Matrix: in vitro
Concentration: 20 nM
Notes: 7-mer, probes averaged, single round
Relative to: mean of 7-mers
Reading: higher = stronger binding
Quantity: 7-mer Z-score
Target sequence (chain): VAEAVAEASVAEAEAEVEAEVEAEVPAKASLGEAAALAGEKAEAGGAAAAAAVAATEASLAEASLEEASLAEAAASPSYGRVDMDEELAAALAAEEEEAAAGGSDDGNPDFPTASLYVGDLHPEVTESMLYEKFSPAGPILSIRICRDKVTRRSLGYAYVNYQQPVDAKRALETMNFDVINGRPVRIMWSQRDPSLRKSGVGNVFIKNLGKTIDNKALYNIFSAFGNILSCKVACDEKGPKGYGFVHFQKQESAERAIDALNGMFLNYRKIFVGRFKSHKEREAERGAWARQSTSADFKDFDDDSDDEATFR
GAGGGGU: 0.137
UCGGAUA: -0.164
AAAUCGG: 1.35
CAUGGUU: -0.347
CUGGCGG: 0.0442
CUGCACG: -0.122
GGAGAGA: 0.209
UGCGGCG: -0.0482
GUACUCU: -0.354
CAGCUGG: -0.124
UGACUGG: -0.0409
GUUAGGU: -0.168
ACAAUGA: 0.249
GUGCUAU: -0.137
UCUGGGG: 0.0569
AGGUGCC: 0.0569
UUGUUCU: -0.512
GUGUUGA: -0.0301
GUCGUCG: -0.47
AGGCGGU: 0.169

Study 3
Target: JUND, bZIP domain (human)
Method: DHFR protein complementation
Matrix: yeast
Notes: single substitutions, most at no-binding floor
Relative to: wild-type JUN-FOS pair
Reading: higher = stronger binding
Quantity: binding fitness
Starting sequence: JUN, bZIP domain (human); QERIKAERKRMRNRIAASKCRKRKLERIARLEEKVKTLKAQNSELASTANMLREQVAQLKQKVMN; partner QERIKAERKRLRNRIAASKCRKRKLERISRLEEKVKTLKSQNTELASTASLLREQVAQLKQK
K36E: -0.733 natural log
R30E: -0.411 natural log
E54H: -0.975 natural log
A46T: -0.497 natural log
E33N: -0.875 natural log
R30Q: -0.521 natural log
K34H: -0.501 natural log
V56C: -1.19 natural log
A40E: -0.562 natural log
E54C: -1.19 natural log
A49F: -1.02 natural log
M51H: -0.65 natural log
R53A: -0.877 natural log
S43Q: -0.459 natural log
T37E: -0.393 natural log
M51Q: -0.542 natural log
S43G: -0.744 natural log
R53K: -0.851 natural log
E44D: -0.917 natural log
A49L: -0.916 natural log
A40G: -1.12 natural log
A46M: -0.573 natural log

Study 4
Target: ABI1, truncated, D143A, DHFR fusion (Arabidopsis thaliana)
Method: DHFR PCA, deep sequencing
Matrix: yeast
Notes: methotrexate growth selection, single substitutions
Together with: (+)-ABA 0.11 µM
Relative to: wild-type fitted maximum
Reading: higher = stronger binding
Quantity: relative binding score
Starting sequence: PYL1, truncated, DHFR fusion (Arabidopsis thaliana); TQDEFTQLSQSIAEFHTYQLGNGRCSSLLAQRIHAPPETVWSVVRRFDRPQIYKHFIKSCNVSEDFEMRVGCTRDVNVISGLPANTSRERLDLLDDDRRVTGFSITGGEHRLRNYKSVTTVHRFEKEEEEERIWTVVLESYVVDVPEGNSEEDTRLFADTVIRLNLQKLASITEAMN; partner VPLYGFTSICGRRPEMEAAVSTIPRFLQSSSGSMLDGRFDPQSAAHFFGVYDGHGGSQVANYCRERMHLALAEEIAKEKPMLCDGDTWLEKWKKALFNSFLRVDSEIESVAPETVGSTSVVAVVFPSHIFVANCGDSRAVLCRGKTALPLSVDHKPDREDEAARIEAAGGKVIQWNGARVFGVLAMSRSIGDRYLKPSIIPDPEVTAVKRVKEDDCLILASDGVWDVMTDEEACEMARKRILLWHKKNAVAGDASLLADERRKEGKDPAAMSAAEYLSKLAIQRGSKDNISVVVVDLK
T120R: -3.43%
V118C: 16.5%
T86E: -3.17%
T135G: -1.64%
Y53L: -0.405%
D159G: -0.453%
E130Q: 35.1%
Q2W: 56.4%
S11K: 3.19%
L91M: 4.52%
M68N: 13.8%
P36F: -0.834%
P36S: 27.3%
E129L: 17.7%
H55R: 39.7%
L156D: 2.99%
S63P: 45.3%
P83N: 11.5%
L20F: 15.2%
A84P: 27.3%
E139Y: 10.3%

Study 5
Target: Sal-like protein 4, full length isoform B (SALL4, Homo sapiens, UniProt Q9UJQ4-2, residues 1-616)
Method: universal PBM
Form: double-stranded DNA, one strand shown
Matrix: in vitro
Concentration: not given
Notes: 8-mer, flanks averaged, mean of replicates
Reading: higher = stronger binding
Quantity: E-score
Construct (chain): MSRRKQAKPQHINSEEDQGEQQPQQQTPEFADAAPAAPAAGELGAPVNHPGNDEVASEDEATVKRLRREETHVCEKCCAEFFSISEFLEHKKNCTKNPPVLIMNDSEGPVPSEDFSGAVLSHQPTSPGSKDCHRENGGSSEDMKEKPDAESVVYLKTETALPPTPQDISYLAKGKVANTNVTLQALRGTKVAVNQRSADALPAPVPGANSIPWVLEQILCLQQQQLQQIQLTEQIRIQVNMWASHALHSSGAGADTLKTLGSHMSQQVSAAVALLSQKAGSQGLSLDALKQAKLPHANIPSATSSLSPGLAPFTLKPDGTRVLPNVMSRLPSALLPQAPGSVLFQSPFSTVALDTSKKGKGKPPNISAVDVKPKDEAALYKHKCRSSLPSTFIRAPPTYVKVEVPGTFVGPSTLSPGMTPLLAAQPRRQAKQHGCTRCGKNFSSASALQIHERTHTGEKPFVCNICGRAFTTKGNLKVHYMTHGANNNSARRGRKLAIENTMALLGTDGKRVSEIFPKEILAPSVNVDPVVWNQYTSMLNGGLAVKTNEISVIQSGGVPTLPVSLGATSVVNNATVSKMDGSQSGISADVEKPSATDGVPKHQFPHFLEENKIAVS
GACTGTGA: -0.0269
AGGAACAT: 0.176
GTCAACCA: 0.00933
CAACCTGG: -0.107
GTCCTAAA: -0.02
CTGGTATC: -0.071
AGATCCCG: -0.138
CGGGGCTA: -0.31
CGCCCATC: -0.221
GAGTCTCC: -0.176
GGGGTTTA: -0.0532
ATAAGTCA: 0.226
CTTTGCAA: 0.0184
CATACAAG: 0.134
CAGATAGC: -0.171
GCATAACA: 0.251
AGGACGAT: 0.00642
CTTCAGTA: -0.0725
CGCGACAC: -0.251
AAGACGAG: -0.146
TCGCACGA: -0.0728
CGAGCCCC: -0.287
CGCATAAC: 0.22
ATCTGACC: 0.0372
AGAAACGA: -0.00063

Study 6
Target: CCNE2, cyclin fold, Cln2 fusion (human)
Method: yeast growth competition, sequencing
Matrix: yeast
Notes: weak parent motif
Relative to: not given
Reading: higher = stronger binding
Quantity: normalised enrichment score
Starting sequence: WEE1 docking peptide (human); CTLRQKLIFSPCS
S13A: 0.528
S10A: 0.693
P11A: 0.507
F9A: 0.124
R4A: 0.197
C12A: 0.333
I8A: 0.59

Study 7
Target: Interferon regulatory factor 7, full length, phosphomimetic (IRF7, Homo sapiens, UniProt Q92985, residues 1-503, S101K/S471D/S472D/S475D/S476D/S477D/S483D/S484D/S487D)
Method: protein-binding microarray
Form: double-stranded DNA, one strand shown
Matrix: in vitro
Concentration: 250 nM
Notes: 60-bp whole probe
Together with: salmon DNA 0.4 mg/ml
Relative to: random background probes
Reading: higher = stronger binding
Quantity: log fluorescence
All sequences stand within: GCCTAGCAC … GTCTTGATTCGCTTGACGCTGCTG
Target sequence (chain): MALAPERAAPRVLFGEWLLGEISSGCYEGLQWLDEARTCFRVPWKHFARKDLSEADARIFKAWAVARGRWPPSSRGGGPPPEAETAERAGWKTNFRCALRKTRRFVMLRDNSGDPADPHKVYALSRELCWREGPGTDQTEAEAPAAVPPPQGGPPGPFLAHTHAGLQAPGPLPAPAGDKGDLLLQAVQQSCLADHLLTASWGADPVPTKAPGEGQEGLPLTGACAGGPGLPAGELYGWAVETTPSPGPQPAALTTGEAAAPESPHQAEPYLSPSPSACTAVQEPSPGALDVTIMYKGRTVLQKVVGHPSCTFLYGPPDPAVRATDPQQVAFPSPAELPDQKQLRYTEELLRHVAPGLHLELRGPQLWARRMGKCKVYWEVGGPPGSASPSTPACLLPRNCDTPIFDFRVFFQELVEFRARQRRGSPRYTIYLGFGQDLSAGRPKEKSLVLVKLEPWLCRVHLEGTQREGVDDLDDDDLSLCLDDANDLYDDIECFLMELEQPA
TTAGGTATCGACTATCGATTAGTGCTA: 0.683 z-score
TTGGTTCTTATCCTTCCCCTCGTGCTA: 0.624 z-score
TTAGGACTGGGTAGCGGTTAGTGCTAG: -0.506 z-score
CTAGGTATCGGGACTGGGTTAGTGCTA: 0.615 z-score
TCACTTATCCTTCCCCTACTGTGCTAG: 1.44 z-score
TTAGATTCCAGTTTCGATTAGTGCTAG: 10.2 z-score
TTAGTACTGGGACTGGGTTAGTGCTAG: 0.0659 z-score
GACGATTCCAGTTTCGCGACGTGCTAG: 2.01 z-score
TTAGATTTCAGACTGAATTAGTGCTAG: 0.313 z-score
GCCGGACTGGACTATCGGGACGTGCTA: -0.826 z-score
CACTCTCTGCTTGTATCTGGGTGCTAG: 0.818 z-score
GACGATATCGGGTTTCGTGACGTGCTA: 1.02 z-score
GGGATTTTGTCCTCCCCTCCCGTGCTA: 0.181 z-score
GTAGGACTGGGTATCGGTTAGTGCTAG: 0.598 z-score
GACGACATCAGACTGGAGACGTGCTAG: -0.36 z-score
TTAGATATCGGGTATCGAATAGTGCTA: 0.228 z-score

Excerpt of the above (study 5):
AGGAACAT: 0.176
GTCAACCA: 0.00933
CAACCTGG: -0.107
GTCCTAAA: -0.02
CTGGTATC: -0.071
AGATCCCG: -0.138
CGGGGCTA: -0.31
CGCCCATC: -0.221
GAGTCTCC: -0.176
GGGGTTTA: -0.0532
ATAAGTCA: 0.226
CTTTGCAA: 0.0184
CATACAAG: 0.134
